# Published values collected from several papers.
# Each numbered part is a random draw from the data of one study; scales do not carry over between parts.

# Set 1
# Target: TAR DNA-binding protein 43, full length, His tag (TARDBP, Homo sapiens, UniProt Q13148, residues 1-414)
# Technique: RNA Bind-n-Seq
# Molecule type: RNA
# Matrix: in vitro
# Concentration: 20 nM
# Notes: 6-mer, flanks averaged, single round
# With: 150 mM KCl
# Relative to: input library
# Reading: higher = stronger binding
Sequence,6-mer enrichment (R)
UACAGA,0.653
GCAGCG,1.86
GCUAAG,0.967
ACAGUC,0.602
CCCGCA,0.654
GGCACA,1.19
CUUAAA,0.586
CGAGUA,0.795
GUAGGU,1.29
UGCAGA,0.857
GAUCUG,0.806
CUAAUG,0.676
CCGUGA,0.756
UGUUAA,0.672
GAACAG,1.03
ACGAGA,0.855
UAAACU,0.586
AAGACG,0.881
CUUGUU,0.642
UCAUAC,0.543
CGUGCC,0.808
UUGAUG,0.816
GGCGCU,1.49
AGCUGC,0.798
AGACGU,0.814

# Set 2
# Target: RNA binding protein fox-1 homolog 2, RRM domain, GST-SBP tag (RBFOX2, Homo sapiens, UniProt O43251-10, residues 100-194)
# Technique: RNA Bind-n-Seq
# Molecule type: RNA
# Matrix: in vitro
# Concentration: 365 nM
# Notes: natural RNA segment, single round, ends assumed
# Relative to: no-protein control
# Reading: higher = stronger binding
# Shared flanks, not repeated: GGGAGUUCUACAGUCCGACGAUC … UGGAAUUCUCGGGUGCCAA
# Construct (chain): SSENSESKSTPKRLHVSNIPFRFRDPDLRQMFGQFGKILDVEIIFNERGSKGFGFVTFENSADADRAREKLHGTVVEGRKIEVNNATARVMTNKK
Sequence,RBNS enrichment (R)
UGCAGGCUUUGAAACAGCCAACAGAUCCCCUUAGCUCUCUGUCAGUCACGAAGCUAUAUGCCAGGCUGCAAAGGAUGUCAAUAGCAUGUGGCAAUGGGGGUUUUUAUUGC,1.18
ACGAACCAGAGACAAAAUUACUAAGUAUAAAUUAGUCAAGUUUAUCAGUCUAAAAAACGAAGGGAUGUGCAACUGCAGCUCUUUAAGAAGUUUUUUUUUUUUAGCUUCUA,0.644
CUUAGAGUAGGAUUGACCUCAUGGGCUGCUCUGCCCACUUGGUCAGGCUCUCCUGAGCAGGACUGCUAAAGAGCUUGCCUCCUCAAAGCCUGGUCUCUGAGGUGCUUUCU,0.245
UUCCUCUGUUUUUCACUAAAUAAGCAAAUGAAAACUCUCUCCAUUACCUUCUGCUUUCUCUUUGUCCACUUACGCAGUAGGUGACUGGCAUGUGCCACAGAGCAGGCCCU,0.955
GCAAGGCUGCUGGUCACUUGAAGCUUUACUCUACAAAUGGGAUAUGAAAUGUGUCCACAUUCCUCUUGAGUCUUUUGAUGCAGACAAAGAAGAUAUAGCAGAAUCUACCC,0.477
CAGGCUUCUGGUUCUUGGUUCUAUUAUGCCACUUCUCCGGUUCUUUCUAUCCCAAGGAGAGUGUGACUGGGUCACACUCACAGUUGCUGUUACUGAAAUGAACUCUGCAG,0.261
UGCAUCUGAUAGUACACAGACUGAUGCACGUAGCAUUUCCCAAACUGUUUGGACCUCAGGACCUUUUCCCCUCUGGGACACUGCAUGCCGUGGAAAACCUUUUCAGAAAC,6.31
UAUGUGAAAGUCAUUUUACAUUUCAAAGCAGUGUGUGUUUCUUAUUUUUAUAUUUUUAACUCUUUAUUCUUGGAUGUAUAAAGUGAACUUUUUGGCUUCUGUAAGUAUGC,0.49
ACCAGCUCCAGAGCCGCUCUUUUCCUAAGCCUCCUGUGCCGCCUUCAGUUUGUAGGAGGCAGCCUGUGUGAGUGACAGACAGGAAACAGAAGAGUAGAACAUACUGGCAG,0.542
CUAGGAAAAGAGACAUUCUUGGCUCUUCUCUUUCCUGGUGUGCCAUGAUCCAGGGAAUGAAAAGAAAUUUGACCCUGGAUUAGUUUCUUUGUCGGCGCUGAGGAACACUG,0.492
AUCUUGCUCGGGCCCUAGCUGUUGGGGUUCUCAUGGGUUGCACUGACCAUACUGCUUACGUCUUAGCCAUUCCGUCCUGCUCCCCAGCUCACUCUCUGAAGCACACAUCA,0.671
GAAAACAGUUGGGUUUUGUUCAACCUACUGUAAGCUCUGGUGUAUGUUCUCAAGGCUAAUUUAUCUGAGCCACAGUUCAAGAGAGGAAGGAGCCUGGGGAGGUCAUGUCC,0.595

# Set 3
# Target: Centromere-binding protein 1, full length, His-tagged (CBF1, Saccharomyces cerevisiae, UniProt P17106, residues 1-351)
# Sequence of UniProt P17106 (whole entry, looked up): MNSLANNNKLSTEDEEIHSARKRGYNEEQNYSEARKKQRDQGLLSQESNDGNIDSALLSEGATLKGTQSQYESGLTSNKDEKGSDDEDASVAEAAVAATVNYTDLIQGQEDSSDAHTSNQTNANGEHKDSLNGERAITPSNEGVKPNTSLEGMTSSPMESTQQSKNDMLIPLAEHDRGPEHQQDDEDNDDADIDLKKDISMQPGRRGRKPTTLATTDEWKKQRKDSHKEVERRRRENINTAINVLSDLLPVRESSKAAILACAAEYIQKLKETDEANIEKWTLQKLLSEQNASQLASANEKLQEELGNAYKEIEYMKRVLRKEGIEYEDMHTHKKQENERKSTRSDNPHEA
# Technique: competition protein-binding microarray
# Molecule type: double-stranded DNA, one strand shown
# Matrix: in vitro
# Concentration: 2 µM
# Notes: whole 60-bp probe, lowest competitor level
# With: Pho4 competitor, 0.05 µM
# Reading: higher = stronger binding
# Shared flanks, not repeated: … GTCTTGATTCGCTTGACGCTGCTG
Sequence,fluorescence intensity
TCTGAGGGACAATGGCGCGTGATGGGCCAGAGACAT,169 a.u.
CGGGGTTAAGTTTGCACGGTGGGTGGCTTGCAGCAG,70.2 a.u.
ATTCCACTAGGGCTGGTCGTGGGTAACTTGGGGAGC,62.5 a.u.
CCCGGGGCGTCGGCGCACGCGGTCCCCACCGGCCGG,43.4 a.u.
GGTCCCGGTCTACCGCTCGTGGCAATTTCAAAAGCC,72.3 a.u.
CGTAGGGCTGATATCCACCTGATCGACAATGTCCAA,187 a.u.
AAAGCGGTAATTTGGGTTGTGGGTGCAGATATCTAT,76.6 a.u.
AAATTACTAAGTTTTCACGTGCGGTACCCCGTATGA,784 a.u.
CGGGGTTAAGTTTGAGTCGTGGGTGGCTTGCAGCAG,76.6 a.u.
TAATTAAGGCAATGCCAGGTGATAAAGTTAAGGTTC,101 a.u.
GTCTTGTCTCATTGGAGTGTGGGTGTCCCCACTTCA,65.1 a.u.
AAATTACTAAGTTTTCACGTGGGATACCCCGTATGA,729 a.u.
CGGCCCTTCTCACCCCCCGTGTTTCGCAAAGAACAA,130 a.u.
GTCTTGTCTCATTGCATGGTGGGTGTCCCCACTTCA,77.4 a.u.
TGCGCAACAACTTGCGCCGTGGGTGTATGTCTAGAA,57.4 a.u.
TGTGAATGGTGGGAGTGCATGACAACGAGGATTTTT,83.1 a.u.
ACATATATTAAGTTCCACGTGATGGAGGGAATAGTC,3420 a.u.
TTTTTCATGTAAGGCCACATGATTCAGACTTACATC,289 a.u.
CGTCCTAGTGATTGTCACCAGACTTCCATGAGGAAG,95 a.u.
CGGGGTTAAGTTTGTGGTGTGGGTGGCTTGCAGCAG,68.8 a.u.
TGCGCAACAACTTGAGAGGTGGGTGTATGTCTAGAA,59.7 a.u.
CGGGGTTAAGTTTGTCATGTGGGTGGCTTGCAGCAG,151 a.u.
CTCTTCCCTCTATTTCACGTGAGTAAGCACAGAATA,1060 a.u.
TGCGCAACAACTTGCTACGTGGGTGTATGTCTAGAA,71.5 a.u.

# Set 4
# Target: Histone acetyltransferase KAT6A, winged helix 2, GST fusion (KAT6A, Homo sapiens, UniProt Q92794, residues 85-181)
# Technique: protein binding microarray
# Molecule type: double-stranded DNA, one strand shown
# Matrix: in vitro
# Concentration: not given
# Notes: 8-mer, flanks averaged, mean of 2 arrays, mostly near background
# Relative to: not given
# Reading: higher = stronger binding
# Target sequence (chain): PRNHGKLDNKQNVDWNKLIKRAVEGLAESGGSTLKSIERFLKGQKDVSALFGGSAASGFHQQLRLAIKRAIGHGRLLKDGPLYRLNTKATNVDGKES
Sequence,E-score
ACCCTAAG,-0.113
AATGGGCG,-0.127
AAGAAATC,0.0086
CCCAAGGC,0.0175
CGCAACGA,0.139
CGGGACCC,0.173
GGGGCACA,0.12
CATGGACA,-0.0423
ACACTTCG,-0.0454
GAGACCAC,0.102
AAAAGGCA,0.0446
AGTAAGTG,-0.127
CACTCCAC,-0.0459
GTTGCCGA,0.028
CCATGCGG,0.16
CACCGCAA,0.261
CACATCGA,-0.0648
ATACCTCA,0.0449
ATGTCGTA,-0.0257
GTCGAAAA,0.0486
CGATAGCA,-0.0822
CGTGTTAA,0.0436
